Measured values gathered from unrelated publications.
Lines come from different studies, so protocols differ. ± marks the error that the study gave.
P2RX4: P2X purinoceptor 4 (P2RX4, Homo sapiens, UniProt Q99571)
UniProt Q99571, sequence (whole entry, looked up): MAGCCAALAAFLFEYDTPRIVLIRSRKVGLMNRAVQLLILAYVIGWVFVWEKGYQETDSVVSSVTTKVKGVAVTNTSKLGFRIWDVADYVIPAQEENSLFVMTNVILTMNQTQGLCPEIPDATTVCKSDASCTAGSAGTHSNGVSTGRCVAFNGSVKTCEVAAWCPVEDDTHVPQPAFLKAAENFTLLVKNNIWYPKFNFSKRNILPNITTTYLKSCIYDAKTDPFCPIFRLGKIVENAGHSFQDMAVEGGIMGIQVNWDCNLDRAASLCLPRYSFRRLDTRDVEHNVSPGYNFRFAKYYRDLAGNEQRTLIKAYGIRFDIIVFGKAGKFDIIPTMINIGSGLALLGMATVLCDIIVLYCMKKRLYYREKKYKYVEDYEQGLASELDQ
Proteasome subunit beta type-9: Proteasome subunit beta type-9 (Homo sapiens, UniProt P28065)
UniProt P28065, sequence (whole entry, looked up): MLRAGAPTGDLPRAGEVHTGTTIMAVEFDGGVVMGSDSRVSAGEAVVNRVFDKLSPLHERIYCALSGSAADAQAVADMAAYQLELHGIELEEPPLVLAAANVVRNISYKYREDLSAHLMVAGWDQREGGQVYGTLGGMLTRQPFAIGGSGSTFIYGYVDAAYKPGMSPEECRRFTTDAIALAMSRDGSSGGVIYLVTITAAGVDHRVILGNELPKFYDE
Probable G-protein coupled receptor 34: Probable G-protein coupled receptor 34 (Homo sapiens, UniProt Q9UPC5)
UniProt Q9UPC5, sequence (whole entry, looked up): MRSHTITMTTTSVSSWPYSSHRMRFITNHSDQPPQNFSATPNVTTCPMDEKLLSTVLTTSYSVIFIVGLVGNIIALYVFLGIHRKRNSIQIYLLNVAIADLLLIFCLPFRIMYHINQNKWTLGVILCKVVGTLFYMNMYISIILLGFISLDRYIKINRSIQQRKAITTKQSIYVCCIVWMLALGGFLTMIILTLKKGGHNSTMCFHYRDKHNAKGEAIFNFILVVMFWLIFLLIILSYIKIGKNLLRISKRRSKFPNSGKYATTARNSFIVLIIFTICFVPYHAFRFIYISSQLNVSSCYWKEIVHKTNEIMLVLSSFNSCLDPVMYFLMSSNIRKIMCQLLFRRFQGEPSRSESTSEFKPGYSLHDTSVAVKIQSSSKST
UniProt Q9R1P1, sequence (whole entry, looked up): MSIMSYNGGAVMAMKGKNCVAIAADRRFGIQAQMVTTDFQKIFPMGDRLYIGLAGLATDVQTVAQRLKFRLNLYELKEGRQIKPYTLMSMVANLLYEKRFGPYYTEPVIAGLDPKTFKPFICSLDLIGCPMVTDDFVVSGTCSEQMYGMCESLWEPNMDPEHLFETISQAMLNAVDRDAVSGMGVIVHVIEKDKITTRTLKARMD
UniProt P20618, sequence (whole entry, looked up): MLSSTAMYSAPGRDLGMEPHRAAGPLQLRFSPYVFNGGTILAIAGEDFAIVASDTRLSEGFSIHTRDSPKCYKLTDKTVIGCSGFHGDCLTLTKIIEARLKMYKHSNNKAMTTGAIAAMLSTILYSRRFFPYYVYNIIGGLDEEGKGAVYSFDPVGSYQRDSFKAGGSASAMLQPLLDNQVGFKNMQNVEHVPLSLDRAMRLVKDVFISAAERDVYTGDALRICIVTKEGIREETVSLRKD
UniProt P00441, sequence (whole entry, looked up): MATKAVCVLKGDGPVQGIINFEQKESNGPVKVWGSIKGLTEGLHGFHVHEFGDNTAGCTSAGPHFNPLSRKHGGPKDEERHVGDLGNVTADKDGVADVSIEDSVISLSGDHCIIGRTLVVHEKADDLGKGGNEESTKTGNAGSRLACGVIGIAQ
UniProt P70195, sequence (whole entry, looked up): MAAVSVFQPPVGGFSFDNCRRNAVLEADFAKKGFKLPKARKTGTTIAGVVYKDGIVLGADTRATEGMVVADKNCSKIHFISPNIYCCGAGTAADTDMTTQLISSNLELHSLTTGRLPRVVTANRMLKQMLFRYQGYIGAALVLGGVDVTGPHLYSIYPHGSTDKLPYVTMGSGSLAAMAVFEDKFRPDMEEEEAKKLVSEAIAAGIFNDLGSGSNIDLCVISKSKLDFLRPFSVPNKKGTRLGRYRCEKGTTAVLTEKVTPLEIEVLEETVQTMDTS
UniProt P10635, sequence (whole entry, looked up): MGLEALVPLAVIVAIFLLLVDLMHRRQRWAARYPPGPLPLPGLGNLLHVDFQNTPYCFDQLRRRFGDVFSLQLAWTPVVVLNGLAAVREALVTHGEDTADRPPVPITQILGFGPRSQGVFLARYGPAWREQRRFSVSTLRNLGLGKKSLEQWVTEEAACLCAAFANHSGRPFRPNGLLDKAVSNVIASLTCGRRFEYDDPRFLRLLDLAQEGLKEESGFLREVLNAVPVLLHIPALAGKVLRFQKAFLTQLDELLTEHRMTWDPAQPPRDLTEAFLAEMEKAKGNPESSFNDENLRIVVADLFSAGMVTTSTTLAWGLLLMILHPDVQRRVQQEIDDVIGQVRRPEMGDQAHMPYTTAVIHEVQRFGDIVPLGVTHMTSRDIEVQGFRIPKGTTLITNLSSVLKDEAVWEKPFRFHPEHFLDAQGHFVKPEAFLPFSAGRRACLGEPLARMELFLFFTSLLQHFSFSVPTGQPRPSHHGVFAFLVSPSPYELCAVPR
UniProt P35400, sequence (whole entry, looked up): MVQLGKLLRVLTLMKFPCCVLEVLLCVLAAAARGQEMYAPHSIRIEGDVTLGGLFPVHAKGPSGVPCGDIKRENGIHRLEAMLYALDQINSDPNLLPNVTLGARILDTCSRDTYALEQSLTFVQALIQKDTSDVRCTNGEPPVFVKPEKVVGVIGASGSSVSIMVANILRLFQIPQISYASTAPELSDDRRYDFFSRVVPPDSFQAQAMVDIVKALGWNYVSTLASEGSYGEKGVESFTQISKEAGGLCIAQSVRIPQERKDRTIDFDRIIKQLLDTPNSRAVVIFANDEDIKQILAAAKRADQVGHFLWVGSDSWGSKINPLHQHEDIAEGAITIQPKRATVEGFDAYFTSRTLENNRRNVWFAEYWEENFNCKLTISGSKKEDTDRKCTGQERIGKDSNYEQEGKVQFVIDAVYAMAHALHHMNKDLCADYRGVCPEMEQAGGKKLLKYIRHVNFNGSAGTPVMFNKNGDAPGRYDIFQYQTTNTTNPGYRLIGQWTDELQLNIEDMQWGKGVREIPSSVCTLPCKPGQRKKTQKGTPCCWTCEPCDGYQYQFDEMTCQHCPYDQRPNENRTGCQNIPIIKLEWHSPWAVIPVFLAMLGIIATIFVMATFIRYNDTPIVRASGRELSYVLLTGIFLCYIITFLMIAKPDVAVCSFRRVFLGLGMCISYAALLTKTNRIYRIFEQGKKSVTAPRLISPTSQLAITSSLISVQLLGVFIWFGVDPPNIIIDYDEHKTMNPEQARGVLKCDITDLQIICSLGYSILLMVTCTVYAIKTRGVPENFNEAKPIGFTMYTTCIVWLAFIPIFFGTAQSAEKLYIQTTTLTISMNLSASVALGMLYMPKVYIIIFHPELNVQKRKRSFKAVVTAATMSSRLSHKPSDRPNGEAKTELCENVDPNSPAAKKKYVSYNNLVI
UniProt Q8C6L5, sequence (whole entry, looked up): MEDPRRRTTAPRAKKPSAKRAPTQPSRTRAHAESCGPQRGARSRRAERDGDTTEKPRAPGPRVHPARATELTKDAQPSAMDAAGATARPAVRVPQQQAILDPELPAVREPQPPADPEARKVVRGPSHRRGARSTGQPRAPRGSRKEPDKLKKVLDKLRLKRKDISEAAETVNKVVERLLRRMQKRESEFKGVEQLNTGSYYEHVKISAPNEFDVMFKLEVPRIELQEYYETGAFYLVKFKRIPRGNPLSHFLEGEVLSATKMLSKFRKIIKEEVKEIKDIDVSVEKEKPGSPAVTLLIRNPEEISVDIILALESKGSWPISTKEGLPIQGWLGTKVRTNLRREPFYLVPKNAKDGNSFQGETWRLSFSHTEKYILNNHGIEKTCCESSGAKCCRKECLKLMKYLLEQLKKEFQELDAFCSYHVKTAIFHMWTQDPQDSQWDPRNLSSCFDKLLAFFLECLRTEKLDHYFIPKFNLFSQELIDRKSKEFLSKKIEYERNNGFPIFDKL
UniProt Q9NPI1, sequence (whole entry, looked up): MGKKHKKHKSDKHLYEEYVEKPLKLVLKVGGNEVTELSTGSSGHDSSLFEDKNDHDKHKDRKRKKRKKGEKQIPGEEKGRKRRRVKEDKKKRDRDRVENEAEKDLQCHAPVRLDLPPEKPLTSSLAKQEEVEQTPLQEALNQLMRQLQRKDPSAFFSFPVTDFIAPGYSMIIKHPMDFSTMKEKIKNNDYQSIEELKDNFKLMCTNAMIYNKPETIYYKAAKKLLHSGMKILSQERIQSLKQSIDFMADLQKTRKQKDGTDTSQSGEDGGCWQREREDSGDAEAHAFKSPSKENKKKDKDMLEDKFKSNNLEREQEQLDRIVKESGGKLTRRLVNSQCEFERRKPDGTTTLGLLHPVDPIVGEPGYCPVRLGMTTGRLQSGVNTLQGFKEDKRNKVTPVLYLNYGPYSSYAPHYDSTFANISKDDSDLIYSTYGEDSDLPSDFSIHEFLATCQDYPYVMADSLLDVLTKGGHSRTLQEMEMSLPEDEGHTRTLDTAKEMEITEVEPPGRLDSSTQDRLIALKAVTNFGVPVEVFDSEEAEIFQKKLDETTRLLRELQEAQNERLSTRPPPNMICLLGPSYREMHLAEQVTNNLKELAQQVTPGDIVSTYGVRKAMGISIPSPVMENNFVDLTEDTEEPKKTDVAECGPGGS
UniProt Q6P2M8, sequence (whole entry, looked up): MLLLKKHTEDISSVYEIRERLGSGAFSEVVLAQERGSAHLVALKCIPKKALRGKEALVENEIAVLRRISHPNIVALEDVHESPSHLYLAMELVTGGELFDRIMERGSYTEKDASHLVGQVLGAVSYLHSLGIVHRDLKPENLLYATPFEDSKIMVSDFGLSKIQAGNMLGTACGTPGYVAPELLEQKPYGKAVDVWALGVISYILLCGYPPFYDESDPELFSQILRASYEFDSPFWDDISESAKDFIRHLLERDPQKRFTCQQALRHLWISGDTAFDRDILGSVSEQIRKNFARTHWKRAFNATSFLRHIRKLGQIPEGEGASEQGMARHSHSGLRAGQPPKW

C=C(C)[C@@H]1CC[C@]2(C)CC[C@]3(C)[C@H](CC[C@@H]4[C@@]5(C)CCCC(C)(C)[C@@H]5CC[C@]43C)[C@@H]12 — IC50 (MAOB (Homo sapiens, UniProt P27338); enzyme activity, inhibitor; with: kynuramine 50 µM): > 100 µM
CC(C)C[C@H](NC(=O)[C@H](CCc1ccccc1)NC(=O)CN1CCOCC1)C(=O)N[C@@H](Cc1ccccc1)C(=O)N[C@@H](CC(C)C)C(=O)[C@@]1(C)CO1 — IC50 (Psmb7/Psmb3, β2 subunit (Mus musculus, UniProt P70195+Q9R1P1); proteasome subunit activity; Ba/F3 BCR-ABL1 T315I; 1 h pulse): 0.151 ± 0.0162 µM
CNc1cc(Nc2ccc(C(F)(F)F)cc2)n2ncnc2n1 — IC50 (Dihydroorotate dehydrogenase (quinone) (pyrD, Acinetobacter baumannii, UniProt B7GZW7); enzyme activity, inhibitor, DCIP steady-state rate): 0.85 ± 0.16 µM
CCCc1nc2c(C)cc(-c3nc4ccccc4n3C)cc2n1Cc1ccc(-c2ccccc2C(=O)O)cc1 — IC50 (SLC22A11 (Homo sapiens, UniProt Q9NSA0); transport, inhibitor; CHO expressing hOAT4; 5 min, with: 6-carboxyfluorescein 25 µM): 1.12 ± 0.14 µM
CC(=O)OC1CC2CCC1(C)C2(C)C (centres unmarked) — IC50 (α-amylase): 13.3 ± 2.9 mg/mL
Fc1ccc(N2CCNCC2COc2ccc(-c3ccccc3)cc2)cc1 (centres unmarked) — IC50 (P2RX4; calcium flux, inhibitor, Ca2+ flux; human cells): 8.31 ± 0.42 µM
CC[C@@H]1[C@H](F)C(=O)N[C@@H]1COc1nccc2cc(C(N)=O)c(OC)cc12 — IC50 (CDK10 (Homo sapiens, UniProt Q15131); ATP-site probe binding, ActivX profiling; THP-1 cell lysate; Lys2 site): > 5 µM
COC(=O)C1=C(CCOCc2ccccc2)CCCC1(C)C=O (centres unmarked) — IC50 (Presenilin-1, in γ-secretase complex (PSEN1, Homo sapiens, UniProt P49768); gamma-secretase activity, inhibitor, AlphaLISA; with: Notch1 substrate): 5.32 ± 0.7 µM
COc1cc(F)cc2c(N3CCN4c5ccccc5NC(=O)C4C3)c(C#N)nnc12 (centres unmarked) — IC50 (Grm7 (Rattus norvegicus, UniProt P35400); receptor response, negative allosteric modulator; with: L-AP4 EC20): 1.2 µM
COc1ccc(C[C@H](NC(=O)[C@H](C)NC(=O)CN2CCOCC2)C(=O)N[C@@H](CC2CC3CCC2C3)C(=O)[C@@]2(C)CO2)cc1 (mixture of isomers) — IC50 (Proteasome subunit beta type-9; competitive ABPP; Raji cell lysate): > 10 µM
CNCc1cc(-c2ccccc2F)n(S(=O)(=O)c2cccnc2)c1 — IC50 (Potassium-transporting ATPase alpha chain 1 (Sus scrofa, UniProt P19156); enzyme activity, inhibitor; porcine gastric vesicles; pH 6.5): 0.0225 µM
COc1cc(-c2cc(C(C)=O)n3ccccc23)c(OC)cc1Cn1ccnc1 — IC50 (BRD7 (Homo sapiens, UniProt Q9NPI1); inhibitor): 0.076 µM
CN(C)c1ccc2nc3ccc(=[N+](C)C)cc-3sc2c1 — IC50 (Superoxide dismutase [Cu-Zn], fully metallated (SOD1, Homo sapiens, UniProt P00441); enzyme activity, inhibitor, XTT): > 75 µM
Cc1ncc(C(=O)N[C@H](C(=O)N[C@@H](CC(C)C)C(=O)N[C@H](/C=C/S(C)(=O)=O)Cc2ccc(CN)cc2)C2CCCCC2)s1 — IC50 (Proteasome subunit beta type-9; competitive ABPP; Raji cell lysate): > 10 µM
CCn1c(-c2nc3cc(C(=O)N4CCC[C@@H](N)C4)cc(OC)c3n2C)cc2cccnc21 — IC50 (PADI4 (Homo sapiens, UniProt Q9UM07); binding, fluorescence polarisation; with: 10 nM tracer displacement, 0.2 mM Ca2+): 0.25 µM
Cc1oc(C)c(-c2ccc(N(CC(C)C)C3CCCCC3)c(NC(=O)Nc3ccccc3)c2)c1C(=O)O — IC50 (IDO1 (Homo sapiens, UniProt P14902); enzyme activity, inhibitor, recombinant enzyme, measured: kynurenine; 20 min, 2% DMSO, with: L-tryptophan): 38 ± 6 µM
COc1ccc(C[C@H](NC(=O)[C@H](C)NC(=O)CN2CCOCC2)C(=O)N[C@@H](CC2CCC(C(F)(F)F)CC2)C(=O)[C@@]2(C)CO2)cc1 (some centres unmarked) — IC50 (Proteasome subunit beta type-9; competitive ABPP; Raji cell lysate): > 10 µM
CCn1c(=O)c(-c2ccc(-c3cncs3)cc2Cl)cc2cnc(Nc3ccc(N4CCN(C)CC4)cc3)nc21 — IC50 (Probable G-protein coupled receptor 34; antagonist, Tango; with: LysoPS 5 µM): > 10 µM
CC(=O)c1cc([N+](=O)[O-])c(Sc2ccc(F)cc2F)s1 — IC50 (USP21 (Homo sapiens, UniProt Q9UK80); enzyme activity, inhibitor, MALDI-TOF DUB; 35 min preincubation, 30 °C): 20.6 µM
Cc1cc2nc3c(=O)[nH]c(=O)nc-3n(C[C@H](O)[C@H](O)[C@H](O)COP(=O)(O)OP(=O)(O)OC[C@H]3O[C@@H](n4cnc5c(N)ncnc54)[C@H](O)[C@@H]3O)c2cc1C — log2 fold change (binding, MIDAS equilibrium dialysis LC-MS; A2AR-BRIL thermostabilized; concentration not given; relative to: no-protein control): -0.277
Cc1cc(N2CCN(c3ncccn3)CC2)nc2ccc(NC(=O)c3cccc(N(C)C)c3)cc12 — IC50 (Probable G-protein coupled receptor 34; antagonist, Tango; with: LysoPS 5 µM): > 10 µM
Nc1nc(=O)n([C@H]2C[C@H](O)[C@@H](CO)O2)cc1CNC[C@H]1O[C@@H](n2cnc3c(N)ncnc32)[C@H](O)[C@@H]1O — IC50 (DNMT1 (Homo sapiens, UniProt P26358); truncated enzyme, with: 26 bp hemimethylated DNA, SAM 1 µM): > 100 µM
CC#CC(=O)N1CC[C@@H](n2c(=O)n(-c3ccc(Oc4ccccc4)cc3)c3c(N)ncnc32)C1 — IC50 (SRC (Homo sapiens, UniProt P12931)): > 5 µM
NCCOCC(=O)N1CCC[C@H](C(=O)NCc2nc(-c3ccc(C(F)(F)F)cc3)cs2)C1 — IC50 (PSMB1/PSMB5/PSMB3 (Homo sapiens, UniProt P20618+P28074+P49720)): > 30 µM
O=S(=O)(c1ccccc1F)N1CCNCC1COc1ccc2ccccc2c1 (centres unmarked) — IC50 (P2RX4; calcium flux, inhibitor, Ca2+ flux; human cells): 2.4 ± 0.07 µM
O=C1NCCC12CCN(c1c(Cl)cncc1-c1ccc3cccnc3c1)CC2 — IC50 (Cyclin-dependent kinase 8, with cyclin C (CDK8, Homo sapiens, UniProt P49336)): 0.103 µM
O=C1CN(c2nc(=O)c3cc(C(F)(F)F)cc([N+](=O)[O-])c3s2)CCN1C1CCCC1 — IC50 (Cytochrome P450 2C9 (CYP2C9, Homo sapiens, UniProt P11712); 60 (unit not given), pH 7.4): > 10 µM
CN1CCN(c2ccc(Nc3ncc4cc(C#N)c(=O)n(C5CCCC5)c4n3)cc2)CC1 — IC50 (PNCK (Homo sapiens, UniProt Q6P2M8)): 2.34 µM
CC(C)n1c(/C=C/C(O)CC(O)CC(=O)O)c(-c2ccc(F)cc2)c2ccccc21 (centres unmarked) — IC50 (SLCO1B3 (Homo sapiens, UniProt Q9NPD5, M233I/S112A); estradiol glucuronide uptake, inhibitor; SLCO1B3-expressing cells; 2 min, with: 1 µM [3H]estradiol glucuronide): 8.57 ± 0.151 µM
Cc1nn(-c2nc3c(F)cc(F)cc3s2)c(O)c1C(c1ccc(C(F)(F)F)cc1)c1c(C)nn(-c2nc3c(F)cc(F)cc3s2)c1O — IC50 (Cgas (Mus musculus, UniProt Q8C6L5); enzyme activity, inhibitor, pyrophosphatase-coupled): 3.73 µM
Fc1ccc(N2CCNCC2COc2ccncc2)cc1 (centres unmarked) — IC50 (P2RX4; calcium flux, inhibitor, Ca2+ flux; human cells): > 100 µM
N[C@@H](COP(=O)(O)O)C(=O)O — log2 fold change (binding, MIDAS equilibrium dialysis LC-MS; A2AR-BRIL thermostabilized; concentration not given; relative to: no-protein control): -0.205
O=[N+]([O-])c1ccc(N2CCNCC2COc2ccc3c(c2)OCO3)cc1 (centres unmarked) — IC50 (P2RX4; calcium flux, inhibitor, Ca2+ flux; human cells): > 10 µM
Cn1c(CSc2nc3ccccc3s2)n[nH]c1=S — IC50 (ABCC4 (Homo sapiens, UniProt O15439); ATP-dependent transport, inhibitor, inside-out membrane vesicles): 3600 µM
O=S(=O)(c1ccccc1)N1CCNCC1COc1ccc2ccccc2c1 (centres unmarked) — IC50 (P2RX4; calcium flux, inhibitor, Ca2+ flux; human cells): 6.46 ± 0.13 µM
Cc1ncc(C(=O)N[C@@H](CC2CCC3CCCCC3C2)C(=O)N[C@@H](CC(C)C)C(=O)N[C@H](/C=C/S(C)(=O)=O)Cc2ccc(CN)cc2)s1 (some centres unmarked) — IC50 (Proteasome subunit beta type-9; competitive ABPP; Raji cell lysate): > 10 µM
O=C(Nc1ccc(F)cc1)N1CCNCC1COc1ccc2ccccc2c1 (centres unmarked) — IC50 (P2RX4; calcium flux, inhibitor, Ca2+ flux; human cells): 4.17 ± 0.13 µM
Cc1nc(-c2cnc(NC(C)C)n(C)c2=O)ccc1Oc1ccnc(-c2cnn(C)c2)c1 — IC50 (Cytochrome P450 2D6 (CYP2D6, Homo sapiens, UniProt P10635); direct inhibition, inhibitor; no preincubation): > 100 µM

Repeated from above:
O=S(=O)(c1ccccc1F)N1CCNCC1COc1ccc2ccccc2c1 (centres unmarked) — IC50 (P2RX4; calcium flux, inhibitor, Ca2+ flux; human cells): 2.4 ± 0.07 µM
O=C1NCCC12CCN(c1c(Cl)cncc1-c1ccc3cccnc3c1)CC2 — IC50 (Cyclin-dependent kinase 8, with cyclin C (CDK8, Homo sapiens, UniProt P49336)): 0.103 µM
